# Measured values of several laboratories.
# Protocols differ between the studies behind these lines. Values joined by “and” are separate records of one study, mostly repeats; a detail may differ. ± marks the error that the study gave.
SMILES,target or system,assay,system,setting,how to read,measurement,result
CNS(=O)(=O)Nc1nccc(Cc2c(C)c3ccc(Oc4ncccc4F)cc3oc2=O)c1F,OVSAHO,cell viability,,7 days,,IC50,> 1 µM
CC[n+]1cccc2cc(/C=N/NC(=O)c3cncc(C(=O)N/N=C/c4ccc5c(ccc[n+]5CC)c4)n3)ccc21,22CTA telomeric G4-DNA antiparallel,FRET melting,,"1 µM, K10 buffer, DNA 0.2 µM, with: ds26 10 µM",,ΔTm,13.5 ± 0.3 °C
N#C[C@@H]1CC(F)(F)CN1C(=O)CNC(=O)c1ccnc2ccc(OCCCN3CCN(C(=O)CCc4ccc(O)c(CN5CCN6CC(=O)[O][Al-]([18F])([O]C(=O)C5)[O]c5ccc(CCC(=O)N7CCN(CCCOc8ccc9nccc(C(=O)NCC(=O)N%10CC(F)(F)C[C@H]%10C#N)c9c8)CC7)cc5C6)c4)CC3)cc12 (some centres unmarked),HT1080 cells expressing human FAP,,,"120 min, 37 °C",,internalized fraction,81.3 ± 2.6%
O=S(=O)(Nc1ccc(OC(F)(F)F)cc1)N1CCCC(C2c3ccccc3CCc3ccccc32)C1 (centres unmarked),D341,CellTiter,,"concentration not given, 72 h",,cell proliferation,decreased
COc1cccc(CNC[C@](O)(COCc2ccccc2)[C@@H]2CC[C@@H](C)C[C@H]2OCc2ccccc2)c1,A2780,"cell growth or viability, MTT",,"10 µM, 72 h",,inhibition,94.9%
CCN(C(=O)c1cc(F)ccc1Oc1nncnc1N1CCC2(C1)CN([C@H](CCCN(C)CCOC)C(C)C)C2)C(C)C,JEG-3,cell growth or viability,,72 h,,GI50,> 10 µM
Nc1ncc(-c2cc(-c3cnn(CC(F)(F)F)c3)ncc2F)nc1C(=O)NC1CNCC(F)C1 (centres unmarked),CAMK2A,KINOMEscan,,1 µM,relative to: DMSO control,remaining binding,100%
CCC(CC)n1c(Cc2cccs2)nc2cc(C(=O)N[C@@H](CC(=O)O)c3ccccc3)ccc21,3T3 fibroblasts,"item: α-SMA, Fn1, Col1α2, Timp1",,"concentration not given, 48 h, with: MCM",,mRNA level,decreased
CCC(=CCc1c(O)cc2c(c1O)C(=O)CC(c1ccc(OC)cc1O)O2)CC (centres unmarked),HeLa,"cell growth or viability, MTT",,"0.781 µM, 48 h",,inhibition,4.28%
C=CC(=O)N1CCCC(n2c(=O)c3ncccc3n(Cc3ccc(Oc4ccccc4)cc3)c2=O)C1 (centres unmarked),OCI-LY19,annexin V/PI flow cytometry,,"500 nM, 72 h, Q4 quadrant",,viable cells,57.8%
Cc1ncsc1-c1ccc(C(C)NC(=O)C2CC(O)CN2C(=O)C(NC(=O)CCCCCCCCCCN2CCCC(Nc3ncc(Cl)c(Nc4ccccc4S(=O)(=O)C(C)C)n3)C2)C(C)(C)C)cc1 (centres unmarked),22Rv1,"RNA-seq, item: SDCBP2-AS1",,concentration not given,relative to: DMSO,log2 fold change,-1.24
CC(=O)N[C@@H](CO)C(=O)N[C@@H](Cc1ccccc1)C(=O)N[C@@H](C)C(=O)N[C@@H](CC(=O)O)C(=O)COC(=O)c1c(C)cccc1C,"THP-1 cells, LPS-primed","pyroptosis, LDH release",,"25 µM, LPS 1 µg/mL, 4 h, with: nigericin 5 µM, 2 h",,cell lysis,90.1% and 86.5%
CN1CCCNC(=O)c2cccc(c2)C(=O)NCCCN(C)CCCNc2cccc3c2C(=O)c2cccc(c2C3=O)NCCC1,SAS,"RNA-Seq, item: RABEP2 mRNA",,"1 µM, 6 h",relative to: untreated cells,log2 fold change,-1.45
O=C(Nc1cccc(Sc2ccc3c(/C=C/c4ccccn4)n[nH]c3c2)c1)c1ccco1,BaF3,"cell growth or viability, CCK-8",,,,GI50,4.27 µM
CCCc1cc(=O)oc2cc(O)c(O)cc12,COS-7 (untransfected),,,"500 µM, unit not given",relative to: 3 µM ionomycin,calcium mobilisation signal,0.87 ± 1.22
CCC(=CCc1c(O)cc2c(c1O)C(=O)CC(c1ccc(O)cc1OC)O2)CC (centres unmarked),HeLa,"cell growth or viability, MTT",,"0.781 µM, 48 h",,inhibition,9.59%
O=S(=O)(N[C@H]1CCO[C@@H](C2c3ccc(F)cc3CCc3cc(F)ccc32)C1)c1ccc(OC(F)(F)F)cc1,D341,immunoblot,,"concentration not given, 72 h",,cleaved caspase 9 level,increased
CC(=O)N[C@@H](CC(=O)O)C(=O)N[C@@H](Cc1ccc(I)cc1)C(=O)N[C@@H](C)C(=O)N[C@@H](CC(=O)O)C(=O)COC(=O)c1c(C)cccc1C,"THP-1 cells, LPS-primed","pyroptosis, LDH release",,"25 µM, LPS 1 µg/mL, 4 h, with: nigericin 5 µM, 2 h",,cell lysis,66.6%
COC1CN([C@H]2CC[C@H]([C@@]3(C)Oc4c(Cl)cc(C(=O)NCc5c(SC)cc(C)[nH]c5=O)c(C)c4O3)CC2)C1,,"RNA-seq, item: DLC1","human, whole blood","dose not given, 24 h",relative to: pretreatment baseline,log2 fold change,3.33
COc1ccc(S(=O)(=O)NC23CCCC(C)(CCC4C2CC4(C)C)C3)cc1 (centres unmarked),HT-29,"cell growth or viability, CCK-8",,50 µM,,inhibition,98.9%
C=CC(=O)N1[C@@H](c2ccc3c(c2)OCO3)c2[nH]c3ccccc3c2C[C@H]1C(=O)N1CCN(C)CC1,CCNE1 WT-3xFLAG:CDK2 complex,"co-IP TMT proteomics, item: NUP35",HEK-293T,"20 µM, 6 h",relative to: DMSO,log2 fold change,-0.12
CC12CCCC(NC(=O)c3ccc4ccccc4c3)(C1)C1CC(C)(C)C1CC2 (centres unmarked),HT-29,"cell growth or viability, CCK-8",,10 µM,,inhibition,< 50%
C[n+]1ccc(/C=N/NC(=O)c2cc(C(=O)N/N=C/c3cc[n+](C)c4ccccc34)ncn2)c2ccccc21,22CTA telomeric G4-DNA antiparallel,FRET melting,,"1 µM, K10 buffer, DNA 0.2 µM",,ΔTm,3.7 ± 0.9 °C

# Repeated from above:
SMILES,target or system,assay,system,setting,how to read,measurement,result
O=S(=O)(N[C@H]1CCO[C@@H](C2c3ccc(F)cc3CCc3cc(F)ccc32)C1)c1ccc(OC(F)(F)F)cc1,D341,immunoblot,,"concentration not given, 72 h",,cleaved caspase 9 level,increased
CC(=O)N[C@@H](CC(=O)O)C(=O)N[C@@H](Cc1ccc(I)cc1)C(=O)N[C@@H](C)C(=O)N[C@@H](CC(=O)O)C(=O)COC(=O)c1c(C)cccc1C,"THP-1 cells, LPS-primed","pyroptosis, LDH release",,"25 µM, LPS 1 µg/mL, 4 h, with: nigericin 5 µM, 2 h",,cell lysis,66.6%
